Measurements collected from several papers.
Numbered parts are unrelated; each lists some results of a single study. Positions count from the first letter of the parent shown.

Sample 1
Target: CCND3, cyclin fold, Cln2 fusion (human)
Technique: yeast growth competition, sequencing
Medium: yeast
Notes: weak parent motif
Reference: not given
Direction: higher = stronger binding
Starting sequence: CDC6 docking peptide (human); TLKGRRLVFDNQL
| Substitution | normalised enrichment score |
| --- | --- |
| L13S | 0.158 |
| L13G | 0.116 |
| L7M | 0.109 |
| T1M | 0.0815 |
| G4A | 0.133 |
| V8M | 0.0394 |
| T1G | 0.183 |
| K3M | 0.144 |
| L7A | 0.0863 |
| L2R | 0.253 |
| L2K | 0.141 |
| N11K | 0.141 |
| G4R | 0.0809 |
| R6F | 0.0509 |

Sample 2
Target: RING finger protein unkempt homolog, zinc fingers 1-6, GST-SBP tag (UNK, Homo sapiens, UniProt Q9C0B0, residues 30-357)
UniProt Q9C0B0, sequence (30-357, looked up): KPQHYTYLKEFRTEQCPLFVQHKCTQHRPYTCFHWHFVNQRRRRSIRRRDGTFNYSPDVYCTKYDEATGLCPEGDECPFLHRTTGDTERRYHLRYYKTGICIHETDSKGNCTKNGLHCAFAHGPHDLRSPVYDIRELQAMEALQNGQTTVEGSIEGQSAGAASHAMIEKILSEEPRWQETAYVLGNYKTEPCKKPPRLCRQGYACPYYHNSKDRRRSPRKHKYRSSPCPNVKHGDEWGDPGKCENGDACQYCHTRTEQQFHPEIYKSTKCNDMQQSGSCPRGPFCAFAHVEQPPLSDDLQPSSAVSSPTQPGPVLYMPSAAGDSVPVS
Technique: RNA Bind-n-Seq
Form: RNA
Medium: in vitro
Tested at: not given
Notes: RNA with constant flanks, human-mouse chimeric sites, ends assumed
Reference: input RNA pool
Direction: higher = stronger binding
Constant ends, left off below: GGGAGUUCUACAGUCCGACGAUC … CAACAGAGGAUUGAGCAUCA
| Oligonucleotide | bound/input enrichment [ratio] |
| --- | --- |
| GUCAACAGCUGCCUCAACCCCAUCCUCUACGCCUUCCUGGAUGAGAACUUCAAGGCCUGCUUCCGCAAGUUCUGCUGUGCUUCUGCCCUGCGCCGGGACGUGCAGGUGUCUGACCGCGUG | 0.308 |
| CAACAGAGUCUAGGAUGGGUUCAUUACAUGAUUCAUGAGCCAGAACCGCAUAUUCUUCUCUUUAGACGACCUCUUCCAAAAGAUCAACAAAAAUGAAGUGCAGCUGGGAUCAUCUAAUCU | 0.266 |
| GAGUCGAGCAAACUUGAAACAAUUCGUUAUCUUGCAGCCUCAGUGUUCACUUGCUUGUGGCAAUAGCUGGGGUUUUAUAGGUUCUGGAAGGAGAACUGACGAUGAUGUCCUGCUGUGUGC | 0.109 |
| GAGUCGAGCAAACUUGAAACAAUUCGUUAUCUUGCAGCCUCAGUGUUUUUACUUGCCGCGAUAGCAUUGGGGUUUUAUAGGUUCUGGAAGGAGAACUUUAAUGCUCACUGCCGCUGCUGC | 0.259 |
| CCCCAAUACCAUUUGCAGGUCUGGAACCUGCAUUCUUUUUUUAAAAAACAUGUAUACAUUUUAGGGCUGUAGAUUUAUUUUCCUGGUUUUGUUUUUCUUGCUUAUUCUUUGAGCACAGAA | 1.57 |
| GCGAACAGGACUACAGAAAUGCUGGUAAUUUCAGUCAGUGAGUCGUGACUUCUGAUGUCCCAGCAAAUGUUGGCAUUGUUGACUGCUGAGAAGAUACUUCUGAGGACCCACGUCUAAGGU | 0.116 |
| UUACUUUUGACUCCCUGGGUCAAGUUCCUGUGGGAAUCAUACAGGCAGUGUUUGGACCUUCUUCGAAACAAUUCUAGAGUAGAGCGCCUGUACCAUGAUAUCGCCCAACAAGCUUUCAAA | 0.157 |
| UCAUUUUUCUCUUUUCUUUCUUUCCUUAAAAGCCUAACUAAAGAUUAGUAAGAAAAGAAAACAGAAGCCAUGUUUCGAAGACCUGUGUUACAGGUAUUUCGUCAGUUUGUAAGACAUGAG | 0.162 |

Sample 3
Target: Protein max, full length (MAX, Homo sapiens, UniProt P61244-2, residues 1-151)
Technique: protein-binding microarray
Form: double-stranded DNA, one strand shown
Medium: in vitro
Tested at: not given
Notes: k-mer, scored over probes, only values ≥0.25
Direction: higher = stronger binding
| Oligonucleotide | E-score |
| --- | --- |
| ACGCATGA | 0.398 |
| CCGCCCCA | 0.356 |
| ACAGGTGG | 0.403 |
| CACGTGAG | 0.493 |
| GCCTGCAC | 0.253 |
| ATCACGTG | 0.495 |
| ACACCGTG | 0.317 |
| ACGCTGCA | 0.28 |
| CTGCACGC | 0.395 |
| AACGTGGA | 0.425 |
| ACCACGAT | 0.287 |
| CTGAGCAC | 0.263 |
| AACATGCT | 0.389 |
| GCGCCACC | 0.27 |

Sample 4
Substance: PhoQ, residues 284 288 289 292 302 303 SSTLLI
Technique: Sort-seq
Item: YFP reporter
Medium: E. coli
Notes: PhoQ-PhoP variant library
Together with: 10 µM Mg2+
Reference: high Mg2+ state
Direction: higher = stronger signaling
| target | fold induction |
| --- | --- |
| PhoP, residues 12 14 15 18 19 GMGLL (Escherichia coli, UniProt P23836) | 2.86 |
| PhoP, residues 12 14 15 18 19 QQAYL (Escherichia coli, UniProt P23836) | 11.5 |
| PhoP, residues 12 14 15 18 19 LFHKL (Escherichia coli, UniProt P23836) | 2.05 |
